Assay results from different studies.
Compare with care: the assays were run in different laboratories. Several values in a cell are separate wells, animals, samples, runs or records. In brackets after ≈: the same amount, converted by molar mass.
Organism: Pseudomonas aeruginosa

CCOC(=O)COc1ccc2ccc3oc([N+](=O)[O-])cc3c2c1  MIC90 (REMA): > 32 µg/mL
COc1cccc(C(=O)C#Cc2ccc(O)c(OC)c2)c1  rhamnolipid production (10 µM, 24 h; relative to: untreated): 30%
CC(C)C1NC(=O)C(C(=O)NC(C(=O)NC2C(=O)N3C2SC(C)(C)C3C(=O)O)c2ccccc2)=C1O (stereo not shown)  MIC (broth microdilution; TonB-dependent receptor mutant; PA two-allele library): 100 µg/mL (≈ 194 µM)
O=[N+]([O-])c1cc2c(ccc3c2ccc2cc([N+](=O)[O-])oc23)o1  MIC90 (REMA): > 32 µg/mL
CNC(=O)COc1ccc2nc(N)sc2c1  swarming inhibition (swarming area; PA14-lux; 200 µM, 24 h; relative to: DMSO): -25% and -25.3%
COc1ccc2c(ccc3oc([N+](=O)[O-])cc32)c1  MIC90 (REMA): > 32 µg/mL
CC[C@H](C)[C@H](NC(=O)[C@H](CC(C)C)NC(=O)[C@@H]1CCCN1C(=O)[C@@H](N)CC(C)C)C(=O)N[C@H](C(=O)N[C@@H](Cc1ccccc1)C(=O)N[C@@H](CC(C)C)C(=O)N[C@@H](CCCNC(=N)N)C(=O)N[C@@H](CC(N)=O)C(=O)N[C@@H](CCCNC(=N)N)C(=O)N[C@@H](CC(C)C)C(=O)N[C@@H](CCCCN)C(=O)N[C@@H](Cc1ccc(O)cc1)C(=O)O)[C@@H](C)CC  MBC: 128 µg/mL
Nc1nc2ccc(Oc3ccc(=O)[nH]c3)cc2s1  swarming inhibition (swarming area; PA14-lux; 200 µM, 24 h; relative to: DMSO): 26.3%
COc1cc(C#CC(=O)CC(C)C)ccc1O  pyocyanin production (10 µM, 24 h; relative to: untreated): 88%
O=C(O)CN(CC(=O)O)CC(=O)O  meropenem MIC (VIM-2 producer; 32 µg/mL, added: meropenem): 2 µg/mL
CC(C)C[C@H](NC(=O)[C@H](CCN)NC(=O)[C@H](CCN)NC(=O)[C@@H](Cc1ccccc1)NC(=O)[C@H](CC(C)C)NC(=O)[C@H](CCN)NC(=O)[C@H](CCN)NC(=O)[C@H](N)CCN)C(N)=O  MBC (PAO1; 24 h, 37 °C): > 128 µM
NC(=O)COc1ccc2nc(N)sc2c1  swarming inhibition (swarming area; PA14-lux; 200 µM, 24 h; relative to: DMSO): 4.27%
N=C(N)NCCC[C@H](NC(=O)[C@H](Cc1c[nH]c2ccccc12)NC(=O)[C@@H](N)CCCNC(=N)N)C(=O)N[C@@H](Cc1c[nH]c2ccccc12)C(=O)N[C@@H](CCC(N)=O)C(=O)N[C@@H](Cc1ccccc1)C(=O)N[C@@H](CCC(N)=O)C(=O)N[C@@H](Cc1ccccc1)C(=O)N[C@@H](CCCCN)C(N)=O  MBC: 620 µM
Nc1nc2ccc(Oc3cccnc3)cc2s1  inhibition (swarming area, modified FAB agar; PA14-lux; 200 µM, 24 h; relative to: DMSO vehicle): 48%
COc1cccc(C(=O)C#Cc2ccc(F)c(F)c2)c1  exoprotease production (10 µM, 24 h; relative to: untreated): 88%
CC[C@H](C)[C@H](NC(=O)[C@H](Cc1ccccc1)NC(=O)[C@@H](NC(=O)[C@H](Cc1c[nH]c2ccccc12)NC(=O)[C@@H]1CCCN1C(=O)[C@@H](NC(=O)[C@H](C)N)[C@@H](C)CC)[C@@H](C)CC)C(=O)N[C@@H](Cc1ccccc1)C(=O)N[C@@H](CCCNC(=N)N)C(=O)N[C@@H](CC(C)C)C(=O)N[C@@H](CC(C)C)C(=O)N[C@@H](CCCNC(=N)N)C(=O)N[C@@H](CCCCN)C(=O)NCC(N)=O  MBC (PAO1; 18 h, 37 °C): > 15 µM
CC[C@H](C)[C@H](NC(=O)[C@H](C)NC(=O)[C@H](CCCCN)NC(=O)[C@H](CC(C)C)NC(=O)[C@H](C)NC(=O)[C@@H](NC(=O)[C@H](Cc1c[nH]cn1)NC(=O)[C@H](CC(C)C)NC(=O)[C@@H](NC(=O)[C@@H](NC(=O)[C@H](CCCCN)NC(=O)[C@H](C)NC(=O)[C@H](C)NC(=O)[C@H](CO)NC(=O)[C@H](CCCCN)NC(=O)[C@H](Cc1ccccc1)NC(=O)[C@@H](NC(=O)[C@H](CCCCN)NC(=O)[C@H](CC(C)C)NC(=O)[C@H](Cc1ccccc1)NC(=O)[C@H](CO)NC(=O)[C@H](CCCCN)NC(=O)[C@H](Cc1c[nH]c2ccccc12)NC(=O)[C@H](CCCCN)NC(C)=O)[C@@H](C)O)[C@@H](C)O)C(C)C)[C@@H](C)O)C(=O)N[C@@H](CO)C(=O)N[C@@H](CO)C(N)=O  MIC90 (IPM-S; 43 strains): 16 µg/mL (≈ 5.45 µM)
Nc1nc2ccc(S(=O)(=O)c3cnn(CC4COC4)c3)cc2s1  inhibition (swarming area, modified FAB agar; PA14-lux; 200 µM, 24 h; relative to: DMSO vehicle): -6.51%
O=C(C#Cc1ccc(F)c(F)c1)c1ccccc1Cl  pyocyanin production (10 µM, 24 h; relative to: untreated): 44%
CC[C@H](C)[C@H](NC(=O)[C@H](Cc1c[nH]c2ccccc12)NC(=O)[C@@H](NC(=O)[C@H](Cc1ccccc1)NC(=O)[C@@H]1CCCN1C(=O)[C@@H](NC(=O)[C@H](C)N)[C@@H](C)CC)[C@@H](C)CC)C(=O)N[C@@H](Cc1ccccc1)C(=O)N[C@@H](CCCNC(=N)N)C(=O)N[C@@H](CC(C)C)C(=O)N[C@@H](CC(C)C)C(=O)N[C@@H](CCCNC(=N)N)C(=O)N[C@@H](CCCCN)C(=O)NCC(N)=O  MBC (PAO1; 18 h, 37 °C): > 15 µM
CSCC[C@H](NC(=O)[C@H](CC(C)C)NC(=O)[C@@H](NC(=O)[C@H](Cc1ccccc1)NC(=O)[C@H](CCCCN)NC(=O)[C@H](CCCNC(=N)N)NC(=O)[C@@H](NC(=O)[C@H](Cc1ccc(O)cc1)NC(=O)[C@H](CCCNC(=N)N)NC(=O)[C@@H](N)CCCNC(=N)N)C(C)C)C(C)C)C(=O)N[C@@H](CCCNC(=N)N)C(=O)O  MBC: 64 µg/mL
O=C(O)c1cccc(C(=O)O)n1  meropenem MIC (IMP-37 and IMP-13 producer; 32 µg/mL, added: meropenem): 16 µg/mL
CC(C)CC1NC(=O)C(C(=O)NC(C(=O)NC2C(=O)N3C2SC(C)(C)C3C(=O)O)c2ccccc2)=C1O (stereo not shown)  MIC (broth microdilution; TonB-dependent receptor mutant; PA two-allele library): 25 µg/mL (≈ 47.1 µM)
Nc1c([N+](=O)[O-])oc2ccc3ccccc3c12  MIC90 (REMA): > 32 µg/mL
O=C(C#Cc1ccc(F)c(F)c1)c1cccc(Cl)c1  rhamnolipid production (10 µM, 24 h; relative to: untreated): 31%
CC[C@H](C)[C@H](NC(=O)[C@H](Cc1ccc(O)cc1)NC(=O)[C@@H](NC(=O)[C@H](Cc1ccc(O)cc1)NC(=O)[C@@H]1CCCN1C(=O)[C@@H](NC(=O)[C@H](C)N)[C@@H](C)CC)[C@@H](C)CC)C(=O)N[C@@H](Cc1c[nH]c2ccccc12)C(=O)N[C@@H](CCCNC(=N)N)C(=O)N[C@@H](CC(C)C)C(=O)N[C@@H](CC(C)C)C(=O)N[C@@H](CCCNC(=N)N)C(=O)N[C@@H](CCCCN)C(=O)NCC(=O)O  MBC (PAO1; 18 h, 37 °C): > 15 µM
CCCCCCCCCCCc1c([N+](=O)[O-])oc2ccc3ccccc3c12  MIC90 (REMA): > 32 µg/mL
COc1cc(C#CC(=O)c2ccccc2OC)ccc1O  pyocyanin production (10 µM, 24 h; relative to: untreated): 47%
COc1ccc2ccc3oc([N+](=O)[O-])cc3c2c1Br  MIC90 (REMA): > 32 µg/mL
COc1ccccc1C(=O)C#Cc1ccc(F)c(F)c1  pyocyanin production (10 µM, 24 h; relative to: untreated): 63%
N=C(N)NCCC[C@H](NC(=O)[C@@H](N)CCCNC(=N)N)C(=O)N[C@@H](Cc1c[nH]c2ccccc12)C(=O)N[C@@H](Cc1c[nH]c2ccccc12)C(=O)N[C@@H](CCC(N)=O)C(=O)N[C@@H](Cc1ccccc1)C(=O)N[C@@H](CCC(N)=O)C(=O)N[C@@H](Cc1ccccc1)C(=O)N[C@@H](CCCCN)C(N)=O  MBC: 620 µM
CC1(C)SC2C(NC(=O)C(NC(=O)C3=C(O)C(Cc4ccccc4)NC3=O)c3ccccc3)C(=O)N2C1C(=O)O (stereo not shown)  MIC (pvdA mutant): 12.5 µg/mL (≈ 22.1 µM)
Nc1nc2ccc(CN3CCNC3=O)cc2s1  inhibition (swarming area, modified FAB agar; PA14-lux; 200 µM, 24 h; relative to: DMSO vehicle): 15.1%
COC(=O)c1ccc2c(ccc3oc([N+](=O)[O-])cc32)c1  MIC90 (REMA): > 32 µg/mL
CC1(C)SC2C(NC(=O)C(NC(=O)C3=C(O)C4CCCN4C3=O)c3ccccc3)C(=O)N2C1C(=O)O (stereo not shown)  MIC (fptA mutant): 25 µg/mL (≈ 48.6 µM)
CC(C)C[C@H](NC(=O)[C@H](CCN)NC(=O)[C@H](CCN)NC(=O)[C@@H](Cc1ccccc1)NC(=O)[C@H](CC(C)C)NC(=O)[C@H](CCN)NC(=O)[C@H](CCN)NC(=O)[C@@H](CCN)NC(=O)[C@@H](N)CSCCOC(=O)c1ccc(C(C)(C)C)cc1)C(N)=O  MBC (PAO1; 24 h, 37 °C): 16 µM
Nc1cc(S(=O)(=O)c2ccc3nc(N)sc3c2)ccn1  inhibition (pyocyanin production; PA14-lux; 200 µM, 18 h; relative to: DMSO vehicle): 10.6%

A few entries again:
CC(C)C[C@H](NC(=O)[C@H](CCN)NC(=O)[C@H](CCN)NC(=O)[C@@H](Cc1ccccc1)NC(=O)[C@H](CC(C)C)NC(=O)[C@H](CCN)NC(=O)[C@H](CCN)NC(=O)[C@H](N)CCN)C(N)=O  MBC (PAO1; 24 h, 37 °C): > 128 µM
N=C(N)NCCC[C@H](NC(=O)[C@H](Cc1c[nH]c2ccccc12)NC(=O)[C@@H](N)CCCNC(=N)N)C(=O)N[C@@H](Cc1c[nH]c2ccccc12)C(=O)N[C@@H](CCC(N)=O)C(=O)N[C@@H](Cc1ccccc1)C(=O)N[C@@H](CCC(N)=O)C(=O)N[C@@H](Cc1ccccc1)C(=O)N[C@@H](CCCCN)C(N)=O  MBC: 620 µM
CC[C@H](C)[C@H](NC(=O)[C@H](Cc1ccc(O)cc1)NC(=O)[C@@H](NC(=O)[C@H](Cc1ccc(O)cc1)NC(=O)[C@@H]1CCCN1C(=O)[C@@H](NC(=O)[C@H](C)N)[C@@H](C)CC)[C@@H](C)CC)C(=O)N[C@@H](Cc1c[nH]c2ccccc12)C(=O)N[C@@H](CCCNC(=N)N)C(=O)N[C@@H](CC(C)C)C(=O)N[C@@H](CC(C)C)C(=O)N[C@@H](CCCNC(=N)N)C(=O)N[C@@H](CCCCN)C(=O)NCC(=O)O  MBC (PAO1; 18 h, 37 °C): > 15 µM
